Measurements gathered from unrelated publications.
Every numbered part comes from another study and shows a few of its results, in no order.

Study 1 — technique: RNA Bind-n-Seq; form: RNA; medium: in vitro; tested at: 1 µM; setting: whole 134-nt RNA, ends assumed; with: 150 mM KCl; baseline: input library; direction: higher = stronger binding; measurement: log2 enrichment
Target: Ras GTPase-activating protein-binding protein 1, C-terminal RGG region (G3BP1, Homo sapiens, UniProt Q13283)
Chain of UniProt Q13283 (whole entry, looked up): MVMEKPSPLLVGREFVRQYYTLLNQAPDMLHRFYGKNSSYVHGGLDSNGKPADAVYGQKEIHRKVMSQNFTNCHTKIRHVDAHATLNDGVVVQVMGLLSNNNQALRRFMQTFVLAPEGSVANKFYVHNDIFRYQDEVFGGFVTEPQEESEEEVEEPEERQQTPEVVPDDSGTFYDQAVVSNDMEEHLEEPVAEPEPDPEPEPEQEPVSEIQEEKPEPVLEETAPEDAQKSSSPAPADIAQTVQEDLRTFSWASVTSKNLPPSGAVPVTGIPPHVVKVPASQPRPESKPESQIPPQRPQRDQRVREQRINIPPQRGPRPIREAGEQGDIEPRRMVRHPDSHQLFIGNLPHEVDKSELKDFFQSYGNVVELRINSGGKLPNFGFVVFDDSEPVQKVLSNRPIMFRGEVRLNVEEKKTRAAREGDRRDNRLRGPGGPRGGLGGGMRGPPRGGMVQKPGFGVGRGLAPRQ
All sequences stand within: GGGAGUUCUACAGUCCGACGAUC … UGGAAUUCUCGGGUGUCAAGG
GUCCUGUGCUACACAUCGUAUGUACCGAAUCGGGGUUUGGGGUGGGGAAAAAAAGGGGAAAGUAUUAUGUUACGCCGUUCGGAUCUGCAC: 1.37
GCAGGAAGUAAAAACAAAUGGAAAUGCUUCGGAUAGUGGCAGGGGUGGGGGUUACUAAGGAAAGGGUGGGAUGGGAGUGGGUAAAGAGUU: 0.792
ACCAUGCAGGUGGGCAUCUUUUGGAAGUGGGGCAAGGGGGGGAUAGGGAGGGGGGUAACACUUUGGGAACAGGUGGUCCCAGGUCGUUUC: -0.921
UUGGAGGUGGAUUUUGUUUAUUUUUUUAGCUCAUUUCCAGGGGUGGGAAUUUUUUUUUAAUAUGUGUCAUGAAUAAAGUUGUUUUUGAAA: 3.14
GUCCUGUGCUACACAUCGUAUGUACCGAAUCGGUUUUUUUGGUUUUUUUGGAAAAAGGAAAGUAUUAUGUUACGCCGUUCGGAUCUGCAC: -1.75
AGUCCUGUGCUACACAUCGUAUGUACCGAAUCGGUUUUUUUGGUUUUUUUGGAAAGGAAAGUAUUAUGUUACGCCGUUCGGAUCUGCACU: -2.09
ACCAUGCAGGUGGGCAUCUUUGGGAAGUGGGGCAAGGGGGGGAUAGGGAGGGGGGUAACACUUUGGGAACAGGUGGUCCCAGGUCGUGUC: 2.13
CUCAAGUCCUGUGCUACACAUCGUAUGUACCGAAUCGGGGAAGGGAAGGGAAGGAAAGUAUUAUGUUACGCCGUUCGGAUCUGCACUUCC: -0.819
UCCUGUGCUACACAUCGUAUGUACCGAAUCGGGGUUUUUGGGGUUUUUGGGGUUUUUGGGAAAGUAUUAUGUUACGCCGUUCGGAUCUGC: 0.308
UAACUUUAGAGGAGGAUCUGAUGGAUAUGGCAGUGGACGUGGAUUUGGGGAUGGCUAUAAUGGGUAUGGAGGAGGACCUGGAGGUCGCAA: -1.07
CCUCAAGUCCUGUGCUACACAUCGUAUGUACCGAAUCGGCGGGGCGGGCGGGGAAAGUAUUAUGUUACGCCGUUCGGAUCUGCACUUCCA: 0.727
CAAGUCCUGUGCUACACAUCGUAUGUACCGAAUCGGUGGUUUUUGGUUUUUUUGGAAAGUAUUAUGUUACGCCGUUCGGAUCUGCACUUC: -1.47
UCCUGUGCUACACAUCGUAUGUACCGAAUCGGGGUUUGGGGAAAAAGGGGAAAAAGGGGAAAGUAUUAUGUUACGCCGUUCGGAUCUGCA: 2.1
UGGGAGGUGGAUUUUUUUUAUUUUUUUAGCUCAUUUCCAGGGGUGGGAAUUUUUUUUUAAUAUGUGUCAUGAAUAAAGUUGUUUUUGAAA: 3.5

Study 2 — technique: RNA Bind-n-Seq; form: RNA; medium: in vitro; tested at: not given; baseline: input RNA pool; direction: higher = stronger binding; measurement: bound/input enrichment
Target: RING finger protein unkempt homolog, zinc fingers 1-6, GST-SBP tag (UNK, Homo sapiens, UniProt Q9C0B0, residues 30-357)
Setting: RNA with constant flanks, human-mouse chimeric sites, ends assumed
All sequences stand within: GGGAGUUCUACAGUCCGACGAUC … CAACAGAGGAUUGAGCAUCA
Construct (chain): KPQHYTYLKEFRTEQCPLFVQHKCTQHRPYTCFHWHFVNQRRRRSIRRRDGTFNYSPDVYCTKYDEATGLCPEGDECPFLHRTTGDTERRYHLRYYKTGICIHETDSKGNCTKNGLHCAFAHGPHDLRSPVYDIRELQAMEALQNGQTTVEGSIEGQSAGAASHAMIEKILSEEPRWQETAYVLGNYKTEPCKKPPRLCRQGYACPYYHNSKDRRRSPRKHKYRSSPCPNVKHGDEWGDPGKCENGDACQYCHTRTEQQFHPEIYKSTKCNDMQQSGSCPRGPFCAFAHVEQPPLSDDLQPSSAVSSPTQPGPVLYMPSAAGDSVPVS
UUGAAAACUGAUUCAAGUAAGUUUGAGUAUCACAAUGUUAGCUUUCUAAUUCCAUAAAAGUACUUGGUUUUUACAGUUUAUAAUCUGACAUCACCCCCCGUUUAUAAGUAAAGAGCAACU: 0.926 ratio
GGUGGGGUGGUCAUUGCGCCAAUUGAGCUGCUGAUUCAUGAGUCGCCUUCAAAACUCUCGUGUAGGGUUGACAAUGUGGGGGGGUGGGGGAUCCAGCUUAUUCUUUUAUUUUCAAGUCCA: 2.1 ratio
UAAAUUAGGGCUGCCGUUUUCUGUUUCUCCCUGGGCUGCGGAAAGCCAGAAGAUUUUAUCUAGCUUAUACAAGGCUGCUGGUGUUCCCUCUUUUUUUCCCUCUCUCUUUUUUUUCCAGCA: 1.14 ratio
GCACUUCUCAAAUACUGGCCAAAGACUCACAGUCCAAAAGAAGUAAUGUUCUUAAACGAAUUAGAAGAAAUUUUAGAUGUAAUUGAACCAUCAGAGUUUGUGAAGAUCAUGGAACCCCUU: 1.9 ratio
GGAUCUUUGGGACUGUUUUACUUAAUUGGUCAUUGAUAGCUUAACAAACAUGGAGAUAAGAUUAGAAAUCUUGACAUCAACAGGUAUCAAGCAGAAAAAACCAUGGCCACGUGUCUCCUG: 0.181 ratio
CACACACUCUUCUGUGGGACCCUCAUCUUGCAGGCCCGGGCCUAUGUGGGACCGCACGUGCUAGCAGUGGUGACCCGCACAGGGUUCUGCACGGCAAAAGGGGGCCUGGUGAGCUCCAUC: 0.0993 ratio
UCAUUUUUCUCUUUUCUUUCUUUCCUUUAGGAAAAGCAGAUUAGACUGGUUGUAAGAAAAACAGAAGCCAUGUUUCGAAGACCUGUAUUACAGGUAUUUCGUCAGUUUGUAAGACAUGAG: 0.442 ratio
AACUUCGUGCAUCGGUUUCCCUUUGUAGCUGUUUCAAUUGGCUUUGCUGUGAAUAAAGAGAUGGAGUUUGGAAUUGUGUACAGUUGUGUGGAAGAUAAGAUGUACACCGGCAGGAAAGGG: 0.562 ratio
AAUAGAGGAUCCACCUCCCAAAGUGCUGGGAGUAAAGGUGUGGCCACCACACCUAACUUGAUGGAUAUAUAUUUUUUCUCUUUUAUGUCUUCCUGUUCGUCCAGGGAAGAAAGAUUUGUU: 1.29 ratio

Study 3 — technique: RNA Bind-n-Seq; form: RNA; medium: in vitro; tested at: 365 nM; baseline: no-protein control; direction: higher = stronger binding; measurement: RBNS enrichment (R)
Target: RNA binding protein fox-1 homolog 2, RRM domain, GST-SBP tag (RBFOX2, Homo sapiens, UniProt O43251-10, residues 100-194)
Setting: natural RNA segment, single round, ends assumed
All sequences stand within: GGGAGUUCUACAGUCCGACGAUC … UGGAAUUCUCGGGUGCCAA
Target sequence (chain): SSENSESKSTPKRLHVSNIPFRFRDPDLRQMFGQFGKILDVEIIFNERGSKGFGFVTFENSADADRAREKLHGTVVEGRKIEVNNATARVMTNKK
GCUUUUUAAAAAUGACAAAUAUGUACUGUGUUGUGAUAAAAAGUAUUUUAUUUGUUUAAUGAUAUGCAUGCUUUUCUUCUGUAAAUAUAUAAUAAAUUUUUGUAGAUAGU: 86.8
AACAUUUUGGAUUUUCAUAUGUGUCUGAUAAGUGGUUGUAUAGUCGUUUGGCGCUGUUGUAUGGUGUGAUUGUCAGUGUAUGGUGUCACUUCCUAUAGCCAGCAGCAGAC: 0.245
AUUAAGACUGCAGAGAUUUACAGAGCAUCCUUUCAAGAUCGGGGUCCGGAGGAGCAGCUUCGUGCUGCGCGAACUUUAGCAGGAGGACCGAUGAUUAGCAUUUAUGAUGC: 0.471
UAAUACUAAACCGUUGAGUUUCUAAAUAUUUAUUUAUUCUAACAAAAAGCAAUUACUACAAAUGGAUGACACAUUUAAUGAACACAAUUUUAUUUUUUUUCUGUAACUGU: 0.492
CCCUCCUUCUGUAGAGGCCGCCUGCCAGCCAUGCACCUGCGUCAACGCGCCUGAAACACCCCGCGGGCCUCCCGUUGUCAUGCCUUACGGUUUCCAAUGCGCCGUCACCA: 0.694
ACGUCUGCAGCAGAGGCCCAGUAGCACCGAAUGGUGUCCAAUAAGCUCUGAGCAGUGGCAAUAGAAUGUCAACGGAUUGCAAUCAGAUGGCUCAACUCUGUGUCUCCUGA: 0.272
UAGUUGUGUCUUAAUGGAAUUAAUAAAUGUCAUUUCACUACUGGUGUUCUGUUUCAAUGUAUAAGGACUAUAGUGAUUUAAACUCAUCAAUGUGCCUUUGCAUAAAGUUC: 0.287
GAGUAUUUUGUAAUUUUUUUGAAAUAUUUGUGGACAUAAAUAAAACCAAGCUACACUACAACCCUUGGUGUCUCCCGUGCACUGUCUCAUUCCUGGAGAGUGGGCGGGGA: 0.302
GUUUUACAGACUAUGAAGCUGAGGGGGGAUGGUAGGCACAGAUGUGUGGCAACCCUGCUCUGUGCUCUGAAACCAAAGUGUGUCCUGUCUUGUCUGUCUCUCACCCUGCC: 0.674
UUUGCUGUGGGCAUCUGUAGAUUUCUCGAUCUCGUUAGAUUGCAGGCAUCUUGACAUCUUGGCAACUGCCUAGUUAAUGCCAGUGGCCUGUACCAUAUUAUGGAAAACUG: 0.3
AACCACUAUCCCCAGUAUGUAAUGGCUGAAUUAAUAUGUAAUCAACUGCAUUGUAUCUAAAGCCUUAGAACUAGUCAGGUGCUCCUCCCACCCAAUACCAUUUCUUACCC: 0.327
GCUGGCAUUCACACGCUUCCAUGGACAAACUUGACUUGCUCUAGGGAACCUUGGGUUAUCAUGUCACGAUGCCUGUGACCAUGAUUUCACGAAGUAGGUUUCCUCUGGCU: 0.439

Study 4 — technique: universal PBM; form: double-stranded DNA, one strand shown; medium: in vitro; tested at: 600 nM; direction: higher = stronger binding; measurement: E-score
Target: Sal-like protein 4, full length isoform A (SALL4, Homo sapiens, UniProt Q9UJQ4, residues 1-1053)
Chain of UniProt Q9UJQ4 (whole entry, looked up): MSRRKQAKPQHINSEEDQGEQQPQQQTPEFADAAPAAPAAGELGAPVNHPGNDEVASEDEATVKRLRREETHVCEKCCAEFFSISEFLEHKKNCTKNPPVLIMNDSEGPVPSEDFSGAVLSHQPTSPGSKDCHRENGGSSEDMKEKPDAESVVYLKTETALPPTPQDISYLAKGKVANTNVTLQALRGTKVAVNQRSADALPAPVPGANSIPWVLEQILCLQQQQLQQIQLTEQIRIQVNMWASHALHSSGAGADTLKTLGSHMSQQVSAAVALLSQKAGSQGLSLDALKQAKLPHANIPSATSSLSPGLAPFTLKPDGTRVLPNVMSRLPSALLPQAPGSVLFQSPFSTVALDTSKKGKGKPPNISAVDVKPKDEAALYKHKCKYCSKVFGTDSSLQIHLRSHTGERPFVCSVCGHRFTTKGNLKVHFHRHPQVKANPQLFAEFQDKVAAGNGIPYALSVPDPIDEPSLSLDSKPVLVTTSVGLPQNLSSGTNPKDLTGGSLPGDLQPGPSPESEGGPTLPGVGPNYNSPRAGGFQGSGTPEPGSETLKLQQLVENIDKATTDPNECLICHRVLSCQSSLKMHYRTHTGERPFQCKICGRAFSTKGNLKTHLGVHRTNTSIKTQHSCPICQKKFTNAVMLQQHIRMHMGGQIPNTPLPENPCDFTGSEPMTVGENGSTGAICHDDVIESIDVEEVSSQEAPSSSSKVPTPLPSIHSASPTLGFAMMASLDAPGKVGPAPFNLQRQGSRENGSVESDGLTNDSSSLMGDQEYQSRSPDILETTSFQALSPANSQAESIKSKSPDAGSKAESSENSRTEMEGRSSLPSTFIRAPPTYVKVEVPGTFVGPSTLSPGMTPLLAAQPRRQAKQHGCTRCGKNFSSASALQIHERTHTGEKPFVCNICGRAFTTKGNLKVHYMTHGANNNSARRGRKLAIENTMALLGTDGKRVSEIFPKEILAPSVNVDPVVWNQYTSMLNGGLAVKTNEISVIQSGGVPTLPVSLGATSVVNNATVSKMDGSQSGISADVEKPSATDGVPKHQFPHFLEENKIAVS
Setting: 8-mer, flanks averaged, mean of replicates
AAAACCAC: 0.104
GAGTTAGC: 0.0456
AAGCGTCG: -0.164
GGTGCTAA: 0.00297
CTTGAAAC: 0.0301
AGATTCAT: 0.236
CATTCTGC: 0.0511
ACCGGCGG: -0.336
ATGCGCAA: 0.0685
ATCGCAAA: 0.188
AATCGTAT: 0.271
CTAGTCCA: -0.0572
AAGGCCAA: -0.119
CCTGGGAC: -0.317
AAATCCCT: -0.013
CTTACTTC: 0.115
GGATAACA: 0.0997
ATTAGACA: 0.287
AATAGCGT: 0.197

Some of these lines once more (study 3):
ACGUCUGCAGCAGAGGCCCAGUAGCACCGAAUGGUGUCCAAUAAGCUCUGAGCAGUGGCAAUAGAAUGUCAACGGAUUGCAAUCAGAUGGCUCAACUCUGUGUCUCCUGA: 0.272
CCCUCCUUCUGUAGAGGCCGCCUGCCAGCCAUGCACCUGCGUCAACGCGCCUGAAACACCCCGCGGGCCUCCCGUUGUCAUGCCUUACGGUUUCCAAUGCGCCGUCACCA: 0.694
UUUGCUGUGGGCAUCUGUAGAUUUCUCGAUCUCGUUAGAUUGCAGGCAUCUUGACAUCUUGGCAACUGCCUAGUUAAUGCCAGUGGCCUGUACCAUAUUAUGGAAAACUG: 0.3
GAGUAUUUUGUAAUUUUUUUGAAAUAUUUGUGGACAUAAAUAAAACCAAGCUACACUACAACCCUUGGUGUCUCCCGUGCACUGUCUCAUUCCUGGAGAGUGGGCGGGGA: 0.302
GCUGGCAUUCACACGCUUCCAUGGACAAACUUGACUUGCUCUAGGGAACCUUGGGUUAUCAUGUCACGAUGCCUGUGACCAUGAUUUCACGAAGUAGGUUUCCUCUGGCU: 0.439
AACCACUAUCCCCAGUAUGUAAUGGCUGAAUUAAUAUGUAAUCAACUGCAUUGUAUCUAAAGCCUUAGAACUAGUCAGGUGCUCCUCCCACCCAAUACCAUUUCUUACCC: 0.327
AUUAAGACUGCAGAGAUUUACAGAGCAUCCUUUCAAGAUCGGGGUCCGGAGGAGCAGCUUCGUGCUGCGCGAACUUUAGCAGGAGGACCGAUGAUUAGCAUUUAUGAUGC: 0.471
AACAUUUUGGAUUUUCAUAUGUGUCUGAUAAGUGGUUGUAUAGUCGUUUGGCGCUGUUGUAUGGUGUGAUUGUCAGUGUAUGGUGUCACUUCCUAUAGCCAGCAGCAGAC: 0.245
